Measured values from different studies.
Parts stem from different laboratories: compare values within a part only.
UniProt P21709, sequence (whole entry, looked up): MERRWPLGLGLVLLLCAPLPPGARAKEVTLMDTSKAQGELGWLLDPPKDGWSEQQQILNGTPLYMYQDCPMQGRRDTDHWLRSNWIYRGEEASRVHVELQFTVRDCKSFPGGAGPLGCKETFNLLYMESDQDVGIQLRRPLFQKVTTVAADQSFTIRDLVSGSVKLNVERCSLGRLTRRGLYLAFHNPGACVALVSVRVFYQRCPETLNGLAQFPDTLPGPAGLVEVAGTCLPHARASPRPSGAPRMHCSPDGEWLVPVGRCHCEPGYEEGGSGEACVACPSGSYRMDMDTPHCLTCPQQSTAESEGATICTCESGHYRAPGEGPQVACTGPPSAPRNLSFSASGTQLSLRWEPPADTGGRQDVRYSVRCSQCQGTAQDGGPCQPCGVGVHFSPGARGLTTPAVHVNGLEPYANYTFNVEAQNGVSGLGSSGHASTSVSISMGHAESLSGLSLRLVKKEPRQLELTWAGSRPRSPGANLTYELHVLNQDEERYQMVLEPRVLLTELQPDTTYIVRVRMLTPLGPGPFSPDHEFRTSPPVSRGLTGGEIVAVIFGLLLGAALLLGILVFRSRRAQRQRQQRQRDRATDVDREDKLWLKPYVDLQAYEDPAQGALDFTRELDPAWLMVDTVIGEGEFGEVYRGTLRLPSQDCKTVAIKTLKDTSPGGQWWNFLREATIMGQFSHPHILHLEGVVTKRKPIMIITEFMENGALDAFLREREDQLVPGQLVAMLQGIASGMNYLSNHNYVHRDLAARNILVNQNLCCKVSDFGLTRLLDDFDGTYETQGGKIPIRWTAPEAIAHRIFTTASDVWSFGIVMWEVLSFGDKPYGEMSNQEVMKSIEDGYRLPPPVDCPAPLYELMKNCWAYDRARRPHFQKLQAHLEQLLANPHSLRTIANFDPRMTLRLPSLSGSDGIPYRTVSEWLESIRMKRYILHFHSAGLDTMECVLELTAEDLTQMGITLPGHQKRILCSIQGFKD
UniProt Q8IU85, sequence (whole entry, looked up): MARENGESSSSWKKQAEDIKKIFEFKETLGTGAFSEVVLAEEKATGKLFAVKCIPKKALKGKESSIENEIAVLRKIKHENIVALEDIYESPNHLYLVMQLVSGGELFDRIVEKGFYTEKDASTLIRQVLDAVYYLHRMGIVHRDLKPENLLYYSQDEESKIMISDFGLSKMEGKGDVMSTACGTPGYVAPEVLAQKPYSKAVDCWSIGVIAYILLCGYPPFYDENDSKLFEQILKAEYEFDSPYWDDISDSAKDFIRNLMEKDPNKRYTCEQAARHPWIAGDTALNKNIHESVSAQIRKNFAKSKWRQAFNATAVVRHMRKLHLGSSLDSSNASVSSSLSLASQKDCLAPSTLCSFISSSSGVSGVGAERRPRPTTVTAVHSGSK
UniProt P00519, sequence (whole entry, unmodified, looked up): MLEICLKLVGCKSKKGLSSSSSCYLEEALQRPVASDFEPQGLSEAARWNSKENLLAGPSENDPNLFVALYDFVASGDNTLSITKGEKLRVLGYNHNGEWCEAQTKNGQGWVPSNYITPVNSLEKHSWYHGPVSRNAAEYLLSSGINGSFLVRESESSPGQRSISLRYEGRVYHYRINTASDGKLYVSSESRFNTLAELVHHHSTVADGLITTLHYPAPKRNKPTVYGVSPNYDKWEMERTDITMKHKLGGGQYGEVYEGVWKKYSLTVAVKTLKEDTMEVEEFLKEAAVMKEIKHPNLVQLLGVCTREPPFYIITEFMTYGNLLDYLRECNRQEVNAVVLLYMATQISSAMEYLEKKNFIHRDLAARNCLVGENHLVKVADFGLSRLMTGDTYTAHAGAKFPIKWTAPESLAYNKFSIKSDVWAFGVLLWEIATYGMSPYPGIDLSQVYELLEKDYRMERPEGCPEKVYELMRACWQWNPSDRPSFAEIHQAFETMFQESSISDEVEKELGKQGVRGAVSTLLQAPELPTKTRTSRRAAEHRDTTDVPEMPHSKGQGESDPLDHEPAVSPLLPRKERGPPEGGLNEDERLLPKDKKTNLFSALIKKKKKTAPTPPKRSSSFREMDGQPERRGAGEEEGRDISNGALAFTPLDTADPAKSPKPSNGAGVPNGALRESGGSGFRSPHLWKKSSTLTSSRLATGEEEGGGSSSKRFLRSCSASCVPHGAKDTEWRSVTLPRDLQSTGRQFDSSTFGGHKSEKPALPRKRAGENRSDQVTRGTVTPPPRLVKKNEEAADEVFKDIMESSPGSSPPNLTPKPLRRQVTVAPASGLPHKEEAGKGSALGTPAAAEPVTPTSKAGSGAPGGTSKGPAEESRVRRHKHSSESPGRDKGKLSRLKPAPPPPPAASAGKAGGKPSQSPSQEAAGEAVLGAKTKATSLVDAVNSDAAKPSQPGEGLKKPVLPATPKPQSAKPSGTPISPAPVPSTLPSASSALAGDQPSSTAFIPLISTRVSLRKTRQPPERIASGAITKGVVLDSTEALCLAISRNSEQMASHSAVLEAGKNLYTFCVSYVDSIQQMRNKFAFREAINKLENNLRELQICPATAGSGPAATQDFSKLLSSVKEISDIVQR

Series 1
SMILES: CCCOc1ccc([C@@H]2[C@@H](C(=O)O)[C@H](c3ccc4c(c3)OCO4)CN2CC(=O)Nc2c(CC)cccc2CC)cc1
Concentration: 1 µM
Quantity: remaining binding
Calcium/calmodulin-dependent protein kinase type 1D (CAMK1D, Homo sapiens, UniProt Q8IU85); cell-free assay, competition with immobilised ligand: 97%
Ephrin type-A receptor 1 (EPHA1, Homo sapiens, UniProt P21709); cell-free assay, competition with immobilised ligand: 100%
Tyrosine-protein kinase ABL1, phosphorylated (ABL1, Homo sapiens, UniProt P00519, F317I); binding: 83%

Series 2
Target: Homeobox protein Hox-B13, full length (HOXB13, Homo sapiens, UniProt Q92826, residues 1-284)
UniProt Q92826, sequence (whole entry, looked up): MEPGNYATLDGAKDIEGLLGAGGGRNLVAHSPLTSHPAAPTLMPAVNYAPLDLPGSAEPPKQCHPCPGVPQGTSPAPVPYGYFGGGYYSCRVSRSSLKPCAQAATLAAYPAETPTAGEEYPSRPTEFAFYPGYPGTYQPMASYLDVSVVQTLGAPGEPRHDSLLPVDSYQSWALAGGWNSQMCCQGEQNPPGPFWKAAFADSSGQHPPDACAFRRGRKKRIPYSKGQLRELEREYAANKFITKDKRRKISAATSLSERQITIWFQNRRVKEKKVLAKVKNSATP
Technique: protein-binding microarray
Form: hairpin DNA
Medium: in vitro
Concentration: not given
Notes: whole hairpin DNA, median over replicate spots
Reference: not given
Reading: higher = stronger binding
Quantity: median fluorescence
Constant ends, left off below: GAGGCCG … CGGCCTCACACTC
TTCGACGAGGGCCTCCTGGCCCTCGTCGAA: 4000 a.u.
TTTCGCGAGGGCCTCCTGGCCCTCGCGAAA (5mC at 33): 4120 a.u.
TTTTAAGAGGGCCTCCTGGCCCTCTTAAAA: 4100 a.u.
TGTTATTGGGGCCTCCTGGCCCCAATAACA: 4380 a.u.
CGTTATTGGGGCCTCCTGGCCCCAATAACG: 4500 a.u.
TTCTACGAGGGCCTCCTGGCCCTCGTAGAA: 4060 a.u.
TTTTACTGGGGCCTCCTGGCCCCAGTAAAA (5mC at 13): 4720 a.u.
GTTTATTGGGGCCTCCTGGCCCCAATAAAC: 4930 a.u.

Series 3
Target: PABPC1L2, full length, GST fusion (mouse, UniProt A0ABA7IW68)
Technique: RNAcompete
Form: RNA
Medium: in vitro
Concentration: 20 nM
Notes: 7-mer, probes averaged, single round
Reference: mean of 7-mers
Reading: higher = stronger binding
Quantity: 7-mer Z-score
Target sequence (chain): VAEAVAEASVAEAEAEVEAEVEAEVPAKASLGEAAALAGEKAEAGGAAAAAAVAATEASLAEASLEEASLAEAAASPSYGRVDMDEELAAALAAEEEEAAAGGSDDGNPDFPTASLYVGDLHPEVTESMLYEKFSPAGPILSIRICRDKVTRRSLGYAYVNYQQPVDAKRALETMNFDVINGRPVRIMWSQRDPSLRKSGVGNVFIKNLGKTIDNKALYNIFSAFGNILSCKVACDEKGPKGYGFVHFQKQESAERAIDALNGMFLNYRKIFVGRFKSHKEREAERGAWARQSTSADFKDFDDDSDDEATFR
CACGGGU: 0.138
GGAAGGA: 0.207
GCCCAGA: -0.0899
CCAACCG: -0.251
GCAACGG: 0.0515
GCGGUGA: 0.00254
CCCAAAG: -0.0754
UAACGUU: -0.28

Further values, each from its own experiment
Medium: hydrocarbon/water
CCC[C@H]1NC(=O)CSC[C@@H](C(=O)OCC)N(C)C(=O)[C@H](CC(C)C)NC(=O)[C@@H](C)N(C)C(=O)[C@H](CC(C)C)NC(=O)[C@H](C)N(C)C(=O)[C@H]2CCCN2C(=O)[C@@H](CC(C)C)NC(=O)CN(CCC)C1=O  logD: 0.457
CCOC(=O)[C@@H]1CSCC(=O)N[C@H](CC)C(=O)N(C)[C@@H](C)C(=O)N[C@H](CC(C)C)C(=O)N2CCC[C@H]2C(=O)N(CC)CC(=O)N[C@H](CC(C)C)C(=O)N(C)[C@H](C)C(=O)N[C@@H](CC(C)C)C(=O)N1C  logD: 1.02
